Assay results pooled from the literature.
Every numbered part comes from another study and shows a few of its results, in no order. Several values in a cell are separate wells, animals, samples, runs or records.
Chain of UniProt P78368 (whole entry, looked up): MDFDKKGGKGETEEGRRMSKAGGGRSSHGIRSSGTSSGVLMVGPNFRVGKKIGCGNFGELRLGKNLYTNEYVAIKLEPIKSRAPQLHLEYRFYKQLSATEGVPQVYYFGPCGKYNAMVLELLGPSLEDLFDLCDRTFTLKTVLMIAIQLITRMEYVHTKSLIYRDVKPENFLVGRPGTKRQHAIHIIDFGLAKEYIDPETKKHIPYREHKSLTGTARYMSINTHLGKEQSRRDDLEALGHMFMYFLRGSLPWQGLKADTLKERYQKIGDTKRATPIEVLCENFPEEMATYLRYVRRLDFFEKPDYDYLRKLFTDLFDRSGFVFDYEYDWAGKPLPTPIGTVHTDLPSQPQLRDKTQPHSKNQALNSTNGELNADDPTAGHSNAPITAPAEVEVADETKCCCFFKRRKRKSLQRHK
Chain of UniProt Q08881 (whole entry, looked up): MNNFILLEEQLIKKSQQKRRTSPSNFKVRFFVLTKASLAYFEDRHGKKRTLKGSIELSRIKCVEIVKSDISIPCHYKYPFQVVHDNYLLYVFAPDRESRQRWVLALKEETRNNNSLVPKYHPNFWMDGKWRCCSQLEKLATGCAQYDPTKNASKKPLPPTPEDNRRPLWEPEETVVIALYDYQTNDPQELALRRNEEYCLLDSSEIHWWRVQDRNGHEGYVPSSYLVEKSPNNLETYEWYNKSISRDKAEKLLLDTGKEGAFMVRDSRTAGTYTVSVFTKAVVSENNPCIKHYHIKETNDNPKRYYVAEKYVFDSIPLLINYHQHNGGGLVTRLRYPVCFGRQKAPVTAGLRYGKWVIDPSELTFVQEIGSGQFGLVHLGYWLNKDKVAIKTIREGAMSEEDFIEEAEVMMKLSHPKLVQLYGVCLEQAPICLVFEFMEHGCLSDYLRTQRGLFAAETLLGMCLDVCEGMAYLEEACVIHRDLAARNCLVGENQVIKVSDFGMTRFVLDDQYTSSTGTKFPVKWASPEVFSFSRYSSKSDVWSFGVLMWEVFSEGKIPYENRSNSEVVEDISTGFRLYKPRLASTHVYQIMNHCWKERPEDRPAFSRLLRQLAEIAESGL
Chain of UniProt Q9BXA7 (whole entry, looked up): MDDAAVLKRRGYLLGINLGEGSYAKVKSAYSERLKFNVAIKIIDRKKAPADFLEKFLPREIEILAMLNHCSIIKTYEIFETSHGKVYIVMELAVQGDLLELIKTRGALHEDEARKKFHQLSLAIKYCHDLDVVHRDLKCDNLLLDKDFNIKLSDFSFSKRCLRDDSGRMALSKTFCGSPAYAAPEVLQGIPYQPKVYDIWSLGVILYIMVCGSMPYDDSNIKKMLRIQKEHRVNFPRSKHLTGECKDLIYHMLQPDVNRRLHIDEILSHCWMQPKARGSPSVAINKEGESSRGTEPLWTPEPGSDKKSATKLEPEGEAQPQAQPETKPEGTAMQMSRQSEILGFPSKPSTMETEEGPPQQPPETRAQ
Chain of UniProt Q8TBX8 (whole entry, looked up): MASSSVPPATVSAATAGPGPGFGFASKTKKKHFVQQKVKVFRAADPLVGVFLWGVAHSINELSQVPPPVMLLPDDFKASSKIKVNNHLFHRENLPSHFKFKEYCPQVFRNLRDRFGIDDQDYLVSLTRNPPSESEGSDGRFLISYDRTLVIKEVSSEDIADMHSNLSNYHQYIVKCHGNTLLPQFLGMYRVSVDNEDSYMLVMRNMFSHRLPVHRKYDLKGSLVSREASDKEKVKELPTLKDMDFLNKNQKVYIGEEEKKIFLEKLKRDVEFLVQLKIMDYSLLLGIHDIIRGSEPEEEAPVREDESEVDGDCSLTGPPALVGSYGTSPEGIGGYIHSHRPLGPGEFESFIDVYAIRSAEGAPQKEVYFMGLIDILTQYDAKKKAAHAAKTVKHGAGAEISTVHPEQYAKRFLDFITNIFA
Chain of UniProt O95382 (whole entry, looked up): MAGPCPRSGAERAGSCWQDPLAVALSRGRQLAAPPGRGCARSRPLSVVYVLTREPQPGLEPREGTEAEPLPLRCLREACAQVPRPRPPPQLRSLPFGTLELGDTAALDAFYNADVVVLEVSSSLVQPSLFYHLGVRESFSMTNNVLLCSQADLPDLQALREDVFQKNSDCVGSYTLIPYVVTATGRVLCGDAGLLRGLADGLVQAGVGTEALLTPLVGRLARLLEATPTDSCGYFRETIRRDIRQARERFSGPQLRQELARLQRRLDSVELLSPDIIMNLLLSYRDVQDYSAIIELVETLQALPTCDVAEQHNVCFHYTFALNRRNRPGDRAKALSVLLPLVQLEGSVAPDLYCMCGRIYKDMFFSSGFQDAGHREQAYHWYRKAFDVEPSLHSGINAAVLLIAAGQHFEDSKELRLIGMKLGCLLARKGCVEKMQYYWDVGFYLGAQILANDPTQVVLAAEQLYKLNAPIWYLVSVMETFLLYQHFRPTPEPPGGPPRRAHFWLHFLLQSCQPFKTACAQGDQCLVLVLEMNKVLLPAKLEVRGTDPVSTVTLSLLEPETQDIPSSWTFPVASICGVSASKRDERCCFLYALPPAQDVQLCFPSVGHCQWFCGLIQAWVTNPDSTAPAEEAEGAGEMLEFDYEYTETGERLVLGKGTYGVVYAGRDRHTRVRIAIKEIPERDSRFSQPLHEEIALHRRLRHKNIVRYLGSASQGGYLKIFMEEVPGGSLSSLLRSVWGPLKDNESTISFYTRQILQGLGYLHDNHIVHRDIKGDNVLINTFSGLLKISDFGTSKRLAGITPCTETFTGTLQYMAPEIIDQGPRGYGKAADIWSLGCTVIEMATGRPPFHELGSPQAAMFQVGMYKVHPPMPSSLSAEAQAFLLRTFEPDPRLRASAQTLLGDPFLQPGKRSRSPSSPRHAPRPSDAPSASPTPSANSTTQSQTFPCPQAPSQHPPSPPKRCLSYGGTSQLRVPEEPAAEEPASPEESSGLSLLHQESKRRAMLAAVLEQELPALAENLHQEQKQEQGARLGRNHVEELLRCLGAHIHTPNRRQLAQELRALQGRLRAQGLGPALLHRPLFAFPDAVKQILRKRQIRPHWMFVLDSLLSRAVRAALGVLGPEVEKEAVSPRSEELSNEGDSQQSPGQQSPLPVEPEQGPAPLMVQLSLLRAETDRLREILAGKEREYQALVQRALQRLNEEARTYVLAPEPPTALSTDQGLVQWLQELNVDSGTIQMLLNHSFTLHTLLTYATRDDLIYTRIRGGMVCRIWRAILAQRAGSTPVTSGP
Chain of UniProt P23458 (whole entry, looked up): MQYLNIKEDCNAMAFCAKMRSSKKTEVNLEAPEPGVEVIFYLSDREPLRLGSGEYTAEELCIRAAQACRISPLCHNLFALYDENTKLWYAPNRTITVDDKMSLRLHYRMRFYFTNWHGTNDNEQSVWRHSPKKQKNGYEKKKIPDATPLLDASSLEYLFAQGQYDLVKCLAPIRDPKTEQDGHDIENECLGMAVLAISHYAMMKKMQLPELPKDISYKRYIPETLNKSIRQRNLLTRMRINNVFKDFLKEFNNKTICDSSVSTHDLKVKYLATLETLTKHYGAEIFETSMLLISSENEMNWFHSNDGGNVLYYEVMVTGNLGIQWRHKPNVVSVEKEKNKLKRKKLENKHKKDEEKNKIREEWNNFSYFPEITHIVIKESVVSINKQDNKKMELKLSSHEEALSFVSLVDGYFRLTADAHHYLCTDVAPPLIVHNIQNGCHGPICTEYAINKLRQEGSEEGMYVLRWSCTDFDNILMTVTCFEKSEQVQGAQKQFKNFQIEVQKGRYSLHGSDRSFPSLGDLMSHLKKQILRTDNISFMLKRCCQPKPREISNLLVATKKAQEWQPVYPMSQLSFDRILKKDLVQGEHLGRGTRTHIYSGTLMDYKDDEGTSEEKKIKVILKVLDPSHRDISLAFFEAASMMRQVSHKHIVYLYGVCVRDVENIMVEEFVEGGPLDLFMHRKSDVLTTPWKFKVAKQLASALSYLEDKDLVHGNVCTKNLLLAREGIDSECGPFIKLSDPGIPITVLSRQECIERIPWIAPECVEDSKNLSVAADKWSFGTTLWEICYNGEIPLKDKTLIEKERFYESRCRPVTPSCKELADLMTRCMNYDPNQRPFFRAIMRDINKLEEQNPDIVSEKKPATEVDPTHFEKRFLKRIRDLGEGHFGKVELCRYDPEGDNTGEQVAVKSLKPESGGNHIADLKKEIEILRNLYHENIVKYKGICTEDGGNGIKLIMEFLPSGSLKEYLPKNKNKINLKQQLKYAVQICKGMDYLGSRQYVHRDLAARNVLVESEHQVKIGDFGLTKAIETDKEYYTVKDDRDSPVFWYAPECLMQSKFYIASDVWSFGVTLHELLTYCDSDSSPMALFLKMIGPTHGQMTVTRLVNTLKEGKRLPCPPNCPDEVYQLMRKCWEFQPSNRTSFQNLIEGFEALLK
Chain of UniProt P45983 (whole entry, looked up): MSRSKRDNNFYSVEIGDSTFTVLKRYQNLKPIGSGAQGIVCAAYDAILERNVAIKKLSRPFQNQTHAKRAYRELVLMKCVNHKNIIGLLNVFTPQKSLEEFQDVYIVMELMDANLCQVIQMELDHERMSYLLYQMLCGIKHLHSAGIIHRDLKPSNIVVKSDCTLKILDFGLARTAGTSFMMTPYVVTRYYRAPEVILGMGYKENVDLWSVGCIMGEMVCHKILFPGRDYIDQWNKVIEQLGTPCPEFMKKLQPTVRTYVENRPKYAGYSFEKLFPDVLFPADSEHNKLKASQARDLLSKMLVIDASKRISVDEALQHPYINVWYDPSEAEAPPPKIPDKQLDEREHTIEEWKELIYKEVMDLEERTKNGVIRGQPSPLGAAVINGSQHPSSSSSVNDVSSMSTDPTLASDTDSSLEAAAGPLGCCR

Series 1
SMILES: O=C(Nc1ccccc1)Nc1cccc(Oc2ccc3nccn3n2)c1
Concentration: 1 µM
Measurement: remaining activity
Epidermal growth factor receptor (EGFR, Homo sapiens, UniProt P00533, del752-759): 91%
Phosphatidylinositol 5-phosphate 4-kinase type-2 gamma (PIP4K2C, Homo sapiens, UniProt Q8TBX8); PIP5K2C construct: 52%
SNF-related serine/threonine-protein kinase (SNRK, Homo sapiens, UniProt Q9NRH2): 100%
MAP kinase-activated protein kinase 2 (MAPKAPK2, Homo sapiens, UniProt P49137): 100%
Phosphorylase b kinase gamma catalytic chain, skeletal muscle/heart isoform (PHKG1, Homo sapiens, UniProt Q16816): 100%
Tyrosine-protein kinase ITK/TSK (ITK, Homo sapiens, UniProt Q08881): 98%
Mitogen-activated protein kinase 8 (MAPK8, Homo sapiens, UniProt P45983): 100%
Casein kinase I isoform gamma-2 (CSNK1G2, Homo sapiens, UniProt P78368): 100%
Serine/threonine-protein kinase BRSK2 (BRSK2, Homo sapiens, UniProt Q8IWQ3): 100%
Mitogen-activated protein kinase kinase kinase 6 (MAP3K6, Homo sapiens, UniProt O95382); ASK2 construct: 100%
Casein kinase I isoform gamma-1 (CSNK1G1, Homo sapiens, UniProt Q9HCP0): 100%
Testis-specific serine/threonine-protein kinase 1 (TSSK1B, Homo sapiens, UniProt Q9BXA7): 100%
Tyrosine-protein kinase JAK1 (JAK1, Homo sapiens, UniProt P23458); JH1 catalytic domain: 84%
Serine/threonine-protein kinase WNK1 (WNK1, Homo sapiens, UniProt Q9H4A3): 100%

Series 2
Compound: CCN1/C(=C/C=C2\CCCC(/C=C/C3=[N+](CC)c4ccccc4C3(C)C)=C2NCCCCCCCCN2CCC(Nc3nc4ccccc4n3Cc3ccc(F)cc3)CC2)C(C)(C)c2ccccc21
Cell line: U-87 MG
Concentration: concentration not given
Relative to: DMSO
Measurement: log2 fold change
refers to: OLFML2B mRNA: -3.55
refers to: NDRG1 mRNA: 1.75
refers to: CCN5 mRNA: -3.84
refers to: ATP6V1B2 mRNA: 0.956
refers to: ENDOD1 mRNA: -1.13
refers to: MAF mRNA: 2.3
refers to: TRAM1L1 mRNA: -1.65
refers to: MCAM mRNA: -1.15
refers to: FAT2 mRNA: -1.33
refers to: SKA3 mRNA: -1.52
refers to: NRBF2 mRNA: 1.24

Series 3
SMILES: O=C(O)C1(O)Oc2ccccc2N(Cc2ccccc2)C1=O (stereo not drawn)
Organism: Arabidopsis thaliana
Strain: Col-0
Measurement: hypocotyl length
3.125 µg/mL, seed germination, single repetition: 1.9 cm and 2.03 cm and 1.88 cm and 1.91 cm
25 µg/mL, seed germination, repetition mean: 1.5 cm
50 µg/mL, seed germination, repetition mean: 1.45 cm
25 µg/mL, seed germination, single repetition: 1.54 cm and 1.5 cm and 1.45 cm and 1.52 cm and 1.51 cm
3.125 µg/mL, seed germination, repetition mean: 1.95 cm
6.25 µg/mL, seed germination, single repetition: 1.92 cm and 1.91 cm and 1.9 cm
12.5 µg/mL, seed germination, single repetition: 1.79 cm and 1.78 cm and 1.7 cm and 1.76 cm
6.25 µg/mL, seed germination, repetition mean: 1.92 cm
100 µg/mL, seed germination, repetition mean: 1.33 cm

Series 4
Cell line: MDA-MB-468
Observed: cell viability
Technique: CellCounting-Lite
Concentration: 666.7 nM
Temperature: 37 °C
Direction: higher = more viable cells
Measurement: luminescence signal
CCn1cnc2c(NCc3nc4cc(F)c(F)cc4[nH]3)nc(N3CCn4ncnc4C3)nc21: 32200 a.u. and 27700 a.u. and 34700 a.u.
CCn1cnc2c(NCc3nc4cc(Cl)c(Cl)cc4[nH]3)nc(N3CCN(C(C)=O)CC3)nc21: 39400 a.u. and 37400 a.u. and 36500 a.u.
CCn1cnc2c(NCc3nc4cc(Cl)c(Cl)cc4[nH]3)nc(N3CCN(c4ccccn4)CC3)nc21: 183000 a.u. and 158000 a.u. and 134000 a.u.
CCn1cnc2c(NCc3nc4cc(Cl)c(Cl)cc4[nH]3)nc(N3CCN(Cc4ccncc4)CC3)nc21: 31300 a.u. and 32500 a.u. and 41600 a.u.
CCn1cnc2c(NCc3nc4cc(Cl)c(Cl)cc4[nH]3)nc(N3CCC(NC(C)=O)CC3)nc21: 35200 a.u. and 31700 a.u. and 31900 a.u.
CCn1cnc2c(NCc3nc4cc(Cl)c(Cl)cc4[nH]3)nc(N3CCN(C(=O)c4ccccn4)CC3)nc21: 37200 a.u. and 31300 a.u. and 43400 a.u.
CC(=O)N1CCN(c2nc(NCc3nc4cc(Cl)c(Cl)cc4[nH]3)c3ncn(C(C)C)c3n2)CC1: 422000 a.u. and 401000 a.u. and 476000 a.u.
CCn1cnc2c(NCc3nc4cc(Cl)c(Cl)cc4[nH]3)nc(N3CCN(S(C)(=O)=O)CC3)nc21: 41300 a.u. and 34400 a.u. and 43500 a.u.
CCn1cnc2c(NCc3nc4cc(Cl)c(Cl)cc4[nH]3)nc(N3CCn4ncnc4C3)nc21: 37100 a.u. and 37300 a.u. and 36300 a.u.
CCn1cnc2c(NCc3nc4cc(Cl)c(Cl)cc4[nH]3)nc(N3CCN(C(=O)c4ccccc4)CC3)nc21: 39800 a.u. and 35400 a.u. and 34100 a.u.
CCn1cnc2c(NCc3nc4cc(Cl)c(Cl)cc4[nH]3)nc(N3CCN(C(=O)c4ccncc4)CC3)nc21: 41800 a.u. and 31600 a.u. and 37600 a.u.

Repeated from above (series 2):
refers to: TRAM1L1 mRNA: -1.65
refers to: MCAM mRNA: -1.15
refers to: FAT2 mRNA: -1.33
refers to: SKA3 mRNA: -1.52
